Measurements collected from several papers.
Every numbered part comes from another study and shows a few of its results, in no order. Positions count from the first letter of the parent shown.

Study 1 — target: CCNB1, cyclin fold, Cln2 fusion (human); technique: yeast growth competition, sequencing; matrix: yeast; setting: strong parent motif; relative to: not given; direction: higher = stronger binding
Parent: INSM1 docking peptide (human); PKAIRKLHFEDEV; partner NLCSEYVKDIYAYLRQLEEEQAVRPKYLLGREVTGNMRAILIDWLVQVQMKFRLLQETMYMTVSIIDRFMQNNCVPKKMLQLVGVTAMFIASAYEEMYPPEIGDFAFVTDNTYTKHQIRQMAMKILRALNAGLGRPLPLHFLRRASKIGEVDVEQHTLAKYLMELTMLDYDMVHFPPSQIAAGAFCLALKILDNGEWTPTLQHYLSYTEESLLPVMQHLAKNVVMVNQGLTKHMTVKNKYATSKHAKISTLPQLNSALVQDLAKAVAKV
Under “normalised enrichment score”, `E10D` is recorded as 2.31.
For `E10Y`, “normalised enrichment score” read 1.52.
`K2A` — result for “normalised enrichment score”: 2.85.
`K6T` — result for “normalised enrichment score”: 0.737.
For `H8F`, “normalised enrichment score” read 2.36.
Under “normalised enrichment score”, `I4L` is recorded as 0.463.
For `I4D`, “normalised enrichment score” read 0.484.
`I4S`: “normalised enrichment score” 0.726.
Under “normalised enrichment score”, `D11S` is recorded as 1.36.
`D11P` — result for “normalised enrichment score”: 1.11.
`H8Y` — result for “normalised enrichment score”: 3.15.
`E10A` — result for “normalised enrichment score”: 1.31.
`K2C` — result for “normalised enrichment score”: 4.16.
`F9E` — result for “normalised enrichment score”: 0.0681.
`E12D` — result for “normalised enrichment score”: 2.19.
`L7N`: “normalised enrichment score” 0.0981.
`D11K`: “normalised enrichment score” 0.959.

Study 2 — technique: DHFR PCA, deep sequencing; matrix: yeast; together with: (+)-ABA 58 µM; relative to: wild-type fitted maximum; direction: higher = stronger binding
Target: ABI1, truncated, D143A, DHFR fusion (Arabidopsis thaliana)
Setting: methotrexate growth selection, single substitutions
Parent: PYL1, truncated, DHFR fusion (Arabidopsis thaliana); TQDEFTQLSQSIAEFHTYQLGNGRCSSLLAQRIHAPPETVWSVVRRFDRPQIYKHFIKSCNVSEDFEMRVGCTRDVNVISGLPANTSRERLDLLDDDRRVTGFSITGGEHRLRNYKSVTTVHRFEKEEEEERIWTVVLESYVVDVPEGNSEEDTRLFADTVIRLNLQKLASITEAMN
Under “relative binding score”, `N77W` is recorded as 78.5%.
`N77Q`: “relative binding score” 94.3%.
`E131S` — result for “relative binding score”: 95.9%.
For `E67A`, “relative binding score” read 83.6%.
For `S117R`, “relative binding score” read -11.9%.
Under “relative binding score”, `V143K` is recorded as -13.5%.
Under “relative binding score”, `D97L` is recorded as 78.9%.
Under “relative binding score”, `R90I` is recorded as 57.6%.
`N165D` — result for “relative binding score”: 24.4%.
`N22G` — result for “relative binding score”: 91%.
Under “relative binding score”, `L112C` is recorded as 43.8%.
`M68W` — result for “relative binding score”: 66.1%.
Under “relative binding score”, `S59M` is recorded as 66%.
For `L93S`, “relative binding score” read 67.9%.
`T73V`: “relative binding score” 89.6%.
For `V145K`, “relative binding score” read 46.6%.
For `D144G`, “relative binding score” read 31%.
For `I57S`, “relative binding score” read -5.6%.
`Q167L` — result for “relative binding score”: 81.4%.
Under “relative binding score”, `F5G` is recorded as 77.7%.

Study 3 — target: UBE2N UBC core domain (UniProt P61088); technique: yeast two-hybrid; matrix: yeast; setting: mostly zero background; relative to: not given; direction: higher = stronger interaction
B1: IRF2BPL RING domain (UniProt Q9H1B7); chain SPMANSGPLCCTICHERLEDTHFVQCPSVPSHKFCFPCSRESIKAQGATGEVYCPSGEKCPLVGSNVP
B2: RC3H2 RING domain (UniProt Q9HBD1); chain QAAQWTEFLSCPICYNEFDENVHKPISLGCSHTVCKTCLNKLHRKACPFDQTAINTDIDVL
B3: ARK2C RING domain (UniProt Q6ZSG1); chain EGEESDTDEKCTICLSMLEDGEDVRRLPCMHLFHQLCVDQWLAMSKKCPICRVDIETQLGAD
Target sequence (chain): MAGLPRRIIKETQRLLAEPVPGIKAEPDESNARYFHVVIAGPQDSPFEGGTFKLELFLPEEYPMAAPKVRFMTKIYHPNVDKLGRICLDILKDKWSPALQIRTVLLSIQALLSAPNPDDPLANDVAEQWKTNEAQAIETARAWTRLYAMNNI
`B1 (IRF2BPL RING domain)` — result for “lacZ reporter activity”: 0.
Under “lacZ reporter activity”, `YWAMDSTFELCKICAESNKDVKIEPCGHLLCSCCLAAWQHSDSQTCPFCRCEIKGWEAVS (CBLC RING domain (UniProt Q9ULV8))` is recorded as 0.
Under “lacZ reporter activity”, `DAIPSLSECQCGICMEILVEPVTLPCNHTLCKPCFQSTVEKASLCCPFCRRRVSSWTRYH (RNF168 RING domain (UniProt Q8IYW5))` is recorded as 0.
`RLTMMWEEVTCPICLDPFVEPVSIECGHSFCQECISQVGKGGGSVCPVCRQRFLLKNLRP (TRIM21 RING domain (UniProt P19474))` — result for “lacZ reporter activity”: 0.
For `QHHELTSLFECPVCFDYVLPPILQCQAGHLVCNQCRQKLSCCPTCRGALTPSIRNL (SIAH2 RING domain (UniProt O43255))`, “lacZ reporter activity” read 0.
`PEELQAMDNVCIICREEMVTGAKRLPCNHIFHTSCLRSWFQRQQTCPTCRMDVLRASLPA (SYVN1 RING domain (UniProt Q86TM6))` — result for “lacZ reporter activity”: 0.
For `QLRRLQEERTCKVCMDKEVSVVFIPCGHLVVCQECAPSLRKCPICRGIIKGTVRTF (BIRC2 RING domain (UniProt Q13490))`, “lacZ reporter activity” read 0.
Under “lacZ reporter activity”, `B2 (RC3H2 RING domain)` is recorded as 0.
`B3 (ARK2C RING domain)` — result for “lacZ reporter activity”: 4600.
`VTLSLTLPITCHICLGKVRQPVICINNHVFCSICIDLWLKNNSQCPACRVPITPENPCK (OBI1 RING domain (UniProt Q5W0B1))`: “lacZ reporter activity” 0.

Study 4 — technique: competition protein-binding microarray; molecule type: double-stranded DNA, one strand shown; matrix: in vitro; concentration: 2 µM; together with: Pho4 competitor, 0.05 µM; direction: higher = stronger binding; shared flanks, not repeated: … GTCTTGATTCGCTTGACGCTGCTG
Target: Centromere-binding protein 1, full length, His-tagged (CBF1, Saccharomyces cerevisiae, UniProt P17106, residues 1-351)
UniProt P17106, sequence (whole entry, looked up): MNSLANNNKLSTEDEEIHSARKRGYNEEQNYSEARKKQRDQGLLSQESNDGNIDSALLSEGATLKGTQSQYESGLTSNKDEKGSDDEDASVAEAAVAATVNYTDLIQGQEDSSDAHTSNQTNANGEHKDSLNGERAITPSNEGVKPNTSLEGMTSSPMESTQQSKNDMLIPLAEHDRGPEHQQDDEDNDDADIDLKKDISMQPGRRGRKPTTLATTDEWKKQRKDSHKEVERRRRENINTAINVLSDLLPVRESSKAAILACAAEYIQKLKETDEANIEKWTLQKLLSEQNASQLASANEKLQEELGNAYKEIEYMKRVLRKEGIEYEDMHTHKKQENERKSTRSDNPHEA
Setting: whole 60-bp probe, lowest competitor level
The fluorescence intensity of `CTTTCCCGATCTTGGATCGTGGGTGTAGCACATTTG` is reported as 87.9 a.u.
The fluorescence intensity of `CATACCCAACCTTGGACAGTGGGTGAAGATATTTGT` is reported as 53.1 a.u.
`CGTCCTAGTGATTGTCACAGCACTTCCATGAGGAAG` gave a fluorescence intensity of 91 a.u.
With `CTAACGAAGGTTTGAAGTGTGGGTGACAAGCCAAGT` the fluorescence intensity was 64.4 a.u.
`TGGCATCCCTCCCGACACGTGACCGCAGCGGGGACA` gave a fluorescence intensity of 9150 a.u.
The fluorescence intensity of `CCTCACCATTCGGGGCAGGTGACGAAGCAAGAGCGA` is reported as 187 a.u.
For `CTTCTGTAAATTTGTCCTGTGGGTGGACGCGCCCCG`, the fluorescence intensity was 78 a.u.
`GATGTTTCCGTCACCGACATGACAATAACCACTTGA` has a fluorescence intensity of 87.4 a.u.
`TGCGCAACAACTTTTCACGTGATTTTATGTCTAGAA` gave a fluorescence intensity of 3840 a.u.
With `AAAGACCTGTCGAGTCACGTTCGTTCAACTGTAGTG` the fluorescence intensity was 356 a.u.
For `CTAACGAAGGTTTGATTAGTGGGTGACAAGCCAAGT`, the fluorescence intensity was 71.8 a.u.
The fluorescence intensity of `CATACCCAACCTTGGATTGTGGGTGAAGATATTTGT` is reported as 68.2 a.u.
For `GTTAATGTTGGAGCTGTTGTGACGGTATTAGAACAA`, the fluorescence intensity was 84.2 a.u.
For `CTTCTGTAAATTTTTCACGTGGCATGAAGCGCCCCG`, the fluorescence intensity was 696 a.u.
`GACATTGCCCTGAGCATCGTGCAAATGGGGGACACT` gave a fluorescence intensity of 81.4 a.u.
With `CTTCTGTAAATTTGTTTCGTGGGTGGACGCGCCCCG` the fluorescence intensity was 79.6 a.u.

Study 5 — technique: RNA Bind-n-Seq; molecule type: RNA; matrix: in vitro; concentration: 365 nM; relative to: no-protein control; direction: higher = stronger binding
Target: RNA binding protein fox-1 homolog 2, RRM domain, GST-SBP tag (RBFOX2, Homo sapiens, UniProt O43251-10, residues 100-194)
Setting: natural RNA segment, single round, ends assumed
Shared flanks, not repeated: GGGAGUUCUACAGUCCGACGAUC … UGGAAUUCUCGGGUGCCAA
Residues (chain): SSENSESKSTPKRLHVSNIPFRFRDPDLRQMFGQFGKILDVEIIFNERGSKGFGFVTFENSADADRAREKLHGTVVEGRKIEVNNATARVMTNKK
`CAACCAUCGAAAAUGGAUUCUUAGUACCAGACAAUCCCAGUAAUGAAGGUUUAGUUUCCUUGAAGGAAACUACAGAAAAGGAAAGAAGCAGAAUGAGAAAGGAAUGGUAC` — result for “RBNS enrichment (R)”: 1.67.
`CCAACUGCACCCCUGUCGCCUGGAGGAGGGCCAGCUCGCUGCCCGAGCUCUGGCCUAGGGACCUUGCCGCUGACCAAGAGGGAGGACCAGUGCAGGGUCUGUGCACCUUC` — result for “RBNS enrichment (R)”: 1.26.
`GCCCUCAAAUUGUAGUCUCUGUCGGCUUCUGCAGAAUUCUGGAAAAUGCCAGUUUUCCUCCCCCGCCCUUGUUUUCCAUAAAACAUAUUUAUAUAUUGUGAUGAGGAGUA` — result for “RBNS enrichment (R)”: 0.553.
Under “RBNS enrichment (R)”, `AGGAAGACAGACUCAUCCAGCGCCACCUCGGGCCCUCCCAGCACACGCAUGGUCUCUUCACUGCUGCCCUCAAUCCGAGUGUCCUUCCCUGCCCAGUCCUAGCCUCCCCG` is recorded as 2.7.
`GUUUUUUAUCAUAUAUGCAUUAAAAGUAUUAUGUUUAUCAACAUUUGCUGCUAUUGUGUUAACAUUUUUGUUUUGCUUGCCAUGAGGCCCCAUUUCCACCUCCCAGUAAA` — result for “RBNS enrichment (R)”: 1.22.
`AGCCCUUUACCUCUCAUGUUCCACUUUGAAAAGUUUGUAUUGACAUUUGGUUCAUAUCUUGUGUAUUGGUGCAUAAAAGAAAAAAAAACAGUGUUUUUACGUUUUCAGUU`: “RBNS enrichment (R)” 0.535.
For `CUCCUGGGAGGGGCGUUCUCCUGGCUUGAGAAGUAGCUGUGUAGUGAAGGCACAGGGUUGUGUGGGUGACUAACUUCACACGGCAGAAGAGAUGUUGCUCUAAUGCUCAC`, “RBNS enrichment (R)” read 0.607.
For `GCCUAGCAAUUUGAGCUCUCAGCAGUGAGAAGACCCCGCCCUGCCUUCAUUAGAGCUAUCAAUACUGAGUGGCUAGAACUCCAGGGACUGUGUGGGUUGCUCUGUUUUCU`, “RBNS enrichment (R)” read 0.655.
`GAAGGUGCCAUUCAGCUCACAGCCGCACCCAGAAUCCUUUGCAGCCCUCCUUCUUUAUUUUUUUCCCAUUGCAUUCUGGGAGUCCACAUCUGGCUUUCUCAGCCACUGUU`: “RBNS enrichment (R)” 0.689.
`AUUGACUGGGAGCAUGGCCAGGCAUCUCCAGGUUCUAAGCUUUGGGAAGCUACACUUCCAAGUUGCUGUGGCUUCACUGCUAAGAAGAGAGUGAGUGAUGGUCUUGGAAA` — result for “RBNS enrichment (R)”: 2.04.
For `AAAGGAGACAUUCUGGCAAAGCCAAUCUGCUUAAAGGCAAAGUCCAGAACCUGGAACCUAGAGGCCUUUCUCUCUGCACGAAAAACAGGUAGUUUGCAGUCUGAGAUAUG`, “RBNS enrichment (R)” read 4.04.
For `AUGGCAGAAACUUCAUGAACCAGCCCUUUCUCAGAGCCAGUGAUGUGAGUGUAUCAGAAUGCCAGGGAGGGCACCAGCCCUGAUCCACAGACCUCGGAAAGAUGCCCCUG`, “RBNS enrichment (R)” read 0.274.

Excerpt of the above (study 1):
For `H8F`, “normalised enrichment score” read 2.36.
Under “normalised enrichment score”, `I4L` is recorded as 0.463.
For `I4D`, “normalised enrichment score” read 0.484.
`I4S`: “normalised enrichment score” 0.726.
Under “normalised enrichment score”, `D11S` is recorded as 1.36.
`D11P` — result for “normalised enrichment score”: 1.11.
`H8Y` — result for “normalised enrichment score”: 3.15.
`E10A` — result for “normalised enrichment score”: 1.31.
